Published values from different studies.
Parts stem from different laboratories: compare values within a part only. Changes are numbered by the printed parent chain.

Sample 1
Target: Interferon regulatory factor 7, full length, phosphomimetic (IRF7, Homo sapiens, UniProt Q92985, residues 1-503, S101K/S471D/S472D/S475D/S476D/S477D/S483D/S484D/S487D)
Chain of UniProt Q92985 (whole entry, unmodified, looked up): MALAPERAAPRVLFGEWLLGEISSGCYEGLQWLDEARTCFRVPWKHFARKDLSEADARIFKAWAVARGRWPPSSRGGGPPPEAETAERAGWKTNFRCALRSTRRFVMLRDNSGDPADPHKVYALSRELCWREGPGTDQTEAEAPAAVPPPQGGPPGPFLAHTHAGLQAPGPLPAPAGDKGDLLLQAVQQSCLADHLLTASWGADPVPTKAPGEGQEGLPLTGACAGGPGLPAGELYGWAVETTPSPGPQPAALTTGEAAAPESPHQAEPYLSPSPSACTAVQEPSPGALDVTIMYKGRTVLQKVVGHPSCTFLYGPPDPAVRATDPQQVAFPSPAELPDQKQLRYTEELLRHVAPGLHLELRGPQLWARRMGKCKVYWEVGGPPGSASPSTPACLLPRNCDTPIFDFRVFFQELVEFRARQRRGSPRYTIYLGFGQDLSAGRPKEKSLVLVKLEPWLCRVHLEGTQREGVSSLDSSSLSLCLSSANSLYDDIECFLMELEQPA
Method: protein-binding microarray
Form: double-stranded DNA, one strand shown
Matrix: in vitro
Tested at: 250 nM
Setting: 60-bp whole probe
Added: salmon DNA 0.4 mg/ml
Reference: random background probes
Direction: higher = stronger binding
Measurement: log fluorescence
All sequences stand within: GCCTAGCAC … GTCTTGATTCGCTTGACGCTGCTG
TTAGGTTCCCTTTTCCTTTTGTGCTAG: 4.44 z-score
GTCGATTTCGGGTTTCGAGACGTGCTA: 6.02 z-score
TTATATCTCAGTTTCGATTAGTGCTAG: 8.45 z-score
TTGGAACTGGGGTATCGATTAGTGCTA: 0.467 z-score
GACGGTTTCCTACTTCTGACGTGCTAG: 1.85 z-score
TTAGGTATCGGTTACGGTTAGTGCTAG: 1.93 z-score
TCAGATCTGCCGTCCCACACTGTGCTA: 0.225 z-score
TTAGGTCTCGGTATCGGCTAGTGCTAG: 2.27 z-score
GACGGTTTCGACACTGGAGACGTGCTA: 4.33 z-score
TTAGGACTGGACACTGGGATAGTGCTA: -0.507 z-score
TCAATATTCACTATAGTACTGTGCTAG: 0.659 z-score
TCATCTCTGGTTCTTGCACTGTGCTAG: 0.588 z-score
GACGATTCCAGTCTCGAGACGTGCTAG: 0.945 z-score
CTTGCTCTGTGCATAGGTCTGTGCTAG: -0.431 z-score
TTATCAATCATTTTCGTTTTGTGCTAG: 7.61 z-score
TGTTTCCTCTTTCTTTGCTTGTGCTAG: 5.97 z-score
GACGGACTGGGGTTTCGGCACGTGCTA: -0.464 z-score
TTAGGTTTCGGTATCGGTTAGTGCTAG: 10.7 z-score

Sample 2
Target: ABI1, truncated, D143A, DHFR fusion (Arabidopsis thaliana)
Method: DHFR PCA, deep sequencing
Matrix: yeast
Setting: methotrexate growth selection, single substitutions
Added: (+)-ABA 0 µM
Reference: wild-type fitted maximum
Direction: higher = stronger binding
Measurement: relative binding score
Starting sequence: PYL1, truncated, DHFR fusion (Arabidopsis thaliana); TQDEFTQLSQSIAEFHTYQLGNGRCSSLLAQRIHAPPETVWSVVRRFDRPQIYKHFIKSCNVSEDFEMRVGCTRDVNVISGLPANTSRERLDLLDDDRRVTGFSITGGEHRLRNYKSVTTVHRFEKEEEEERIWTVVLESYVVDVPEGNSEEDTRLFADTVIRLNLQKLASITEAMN; partner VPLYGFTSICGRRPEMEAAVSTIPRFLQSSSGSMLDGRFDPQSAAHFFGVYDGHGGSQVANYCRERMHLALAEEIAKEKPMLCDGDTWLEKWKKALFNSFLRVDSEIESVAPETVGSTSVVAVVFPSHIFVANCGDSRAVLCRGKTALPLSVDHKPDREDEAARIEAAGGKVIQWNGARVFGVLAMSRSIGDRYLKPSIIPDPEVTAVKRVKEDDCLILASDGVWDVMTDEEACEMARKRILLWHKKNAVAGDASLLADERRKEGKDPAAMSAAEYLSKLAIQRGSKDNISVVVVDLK
L112A: -4.54%
G107F: -4.91%
E131Q: 44%
V78Y: 86.3%
V118D: -1.5%
I105D: 0.0333%
Y18E: 3.3%
H16T: 0.281%
Q51E: 13.2%
P36N: 7.84%
V76I: 35.7%
F56H: 0.864%
A84V: 29.9%
G107W: -7.84%
K58L: 1.06%
S87A: 11.1%
R123C: 10.8%
N165Y: 0.388%
F66A: 0.814%
V161M: 72.4%
R49T: 17.7%

Sample 3
Target: UBE2Q1 UBC core domain (UniProt Q7Z7E8)
Chain of UniProt Q7Z7E8 (whole entry, looked up): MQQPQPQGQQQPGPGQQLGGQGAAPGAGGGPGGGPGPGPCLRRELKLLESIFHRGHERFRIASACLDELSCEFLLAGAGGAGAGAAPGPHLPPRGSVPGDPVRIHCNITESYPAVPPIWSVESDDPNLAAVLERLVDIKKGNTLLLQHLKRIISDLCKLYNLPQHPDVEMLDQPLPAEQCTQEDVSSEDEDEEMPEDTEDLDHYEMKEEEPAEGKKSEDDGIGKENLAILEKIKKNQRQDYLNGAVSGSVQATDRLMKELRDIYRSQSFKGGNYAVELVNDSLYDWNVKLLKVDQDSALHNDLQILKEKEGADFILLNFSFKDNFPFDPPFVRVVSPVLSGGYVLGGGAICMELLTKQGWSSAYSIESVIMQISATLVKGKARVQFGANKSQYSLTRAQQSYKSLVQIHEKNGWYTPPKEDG
Method: yeast two-hybrid
Matrix: yeast
Setting: mostly zero background
Reference: not given
Direction: higher = stronger interaction
Measurement: lacZ reporter activity
B1: MDM2 RING domain (UniProt Q00987); chain TQDKEESVESSLPLNAIEPCVICQGRPKNGCIVHGKTGHLMACFTCAKKLKKRNKPCPVCRQPIQMIVLTYFP
B2: SHPRH RING domain (UniProt Q149N8); chain KTSGGVNPEPCPICARQLGKQWAVLTCGHCFCNECISIIIEQYSVGSHRSSIKCAICRQTTSHKEISY
B3: TRIM68 RING domain (UniProt Q6AZZ1); chain LVEAIVEEVACPICMTFLREPMSIDCGHSFCHSCLSGLWEIPGESQNWGYTCPLCRAPVQPRNLRP
B4: TRIM74 RING domain (UniProt Q86UV6); chain SLLELEDWLQCPICLEVFKESLMLQCGHSYCKGCLVSLSYHLDTKVRCPMCWQVVDGSSSLP
B5: TRIM2 RING domain (UniProt Q9C040); chain VRQIDKQFLICSICLERYKNPKVLPCLHTFCERCLQNYIPAHSLTLSCPVCRQTSILPEKGV
B6: TRIM28 RING domain (UniProt Q13263); chain GAEALELLEHCGVCRERLRPEREPRLLPCLHSACSACLGPAAPAAANSSGDGGAAGDGTVVDCPVCKQQCFSKDIVE
VPADASPDSKCPICLDRFDNVSYLDRCLHKFCFRCVQEWSKNKAECPLCKQPFDSIFHSV (TOPORS RING domain (UniProt Q9NS56)): 0
B1 (MDM2 RING domain): 0
GSEEEEIPFRCFICRQAFQNPVVTKCRHYFCESCALEHFRATPRCYICDQPTGGIFNPA (RNF113B RING domain (UniProt Q8IZP6)): 0
B2 (SHPRH RING domain): 0
B3 (TRIM68 RING domain): 0
B4 (TRIM74 RING domain): 0
B5 (TRIM2 RING domain): 0
SNNDLASLFECPVCFDYVLPPILQCQSGHLVCSNCRPKLTCCPTCRGPLGSIRNLA (SIAH1 RING domain (UniProt Q8IUQ4)): 0
PLRRLQEEKLCKICMDRHIAVVFIPCGHLVTCKQCAEAVDRCPMCSAVIDFKQRVF (BIRC8 RING domain (UniProt Q96P09)): 0
B6 (TRIM28 RING domain): 0

Sample 4
Target: CCND1, cyclin fold, Cln2 fusion (human)
Method: yeast growth competition, sequencing
Matrix: yeast
Setting: strong parent motif
Reference: not given
Direction: higher = stronger binding
Measurement: normalised enrichment score
Starting sequence: RBL1 docking peptide (human); GSAKRRLFGEDPP; partner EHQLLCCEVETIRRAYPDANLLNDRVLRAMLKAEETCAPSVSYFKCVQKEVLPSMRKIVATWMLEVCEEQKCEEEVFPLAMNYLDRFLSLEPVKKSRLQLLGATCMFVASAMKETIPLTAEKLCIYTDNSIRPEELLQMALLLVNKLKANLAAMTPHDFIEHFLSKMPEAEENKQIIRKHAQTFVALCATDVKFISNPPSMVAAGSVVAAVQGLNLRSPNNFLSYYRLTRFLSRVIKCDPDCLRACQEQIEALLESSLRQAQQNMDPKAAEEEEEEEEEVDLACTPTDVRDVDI
S2A: 1.1
G9H: 2.01
A3P: 0.818
E10M: 0.829
R6P: 0.502
P12N: 1.85
G9F: 4.36
L7D: 0.091
G1P: 1.87
S2C: 2
R5T: 0.589
G1H: 2.24
D11G: 1.13
P12T: 2.46
A3F: 0.49
G9L: 2.88
